Assay results of several laboratories.
Numbers after ± are the reported error.

With `CN1CCCC1CCO/N=C1/C=C2CCC3C(CC[C@]4(C)/C(=C/c5ccccn5)CCC34)[C@@]2(C)CC1` (stereo partly shown) the IC50 was 13600 nM (G-361; cell growth or viability, resazurin; 72 h).
`CC(C)Cc1ccc(C(C)C(=O)[O][Pt]([NH2])([NH2])([Cl])([Cl])[O]C(=O)C(Cl)Cl)cc1` (stereo not shown) gave an IC50 of 5250 ± 710 nM (PSN1 3D spheroids).
For `CC(=O)[O-].Nc1ccc(C([O-])=NN=Cc2ccc(OCC(=O)Nc3ccc(Cl)cc3)cc2)cc1.O.O.O.[Co+2]`, the IC50 was 31 µg/mL (WISH; cell growth or viability, MTT; 24 h).
For `N=C(N)NCCC[C@H](N)C(=O)N[C@@H](CC(=O)N[C@@H](CC(=O)O)c1cccc2ccccc12)c1cccc2ccccc12`, the IC50 was greater than 50000 nM (BT-474 (HER2-overexpressing)).
The IC50 of `CC(C)(C)c1nc(-c2cccc(NS(=O)(=O)c3c(F)cccc3F)c2F)c(-c2ccnc(N)n2)s1.Cc1[nH]c2ccccc2c1CCNCc1ccc(/C=C/C(=O)NO)cc1` is reported as 21.9 nM (SK-MEL-28; cell growth or viability, crystal violet).
With `COC(=O)CCC(=O)[O][Pt-2]1([Cl])([Cl])([O]C)[NH2+]CC[N+]1(C)C` the IC50 was 1500 nM (CH1; cell growth or viability, MTT; 96 h).
`CCCCCCOc1c(O)cc(C(=O)O[C@@H]2Cc3c(O)cc(O)cc3O[C@@H]2c2cc(O)c(O)c(O)c2)cc1O` gave an IC50 of 105000 nM (A-431; cell growth or viability, CCK-8; 24 h).
`COc1c(C)c(OS(=O)(=O)c2ccccc2)c(C)c2c1C(=O)CC(c1ccccc1)O2` (stereo not shown) has an IC50 of greater than 50000 nM (KKU-M213; cell growth or viability, SRB; 72 h).
For `COc1cccc2c1C(=O)c1c(O)c3c(c(O)c1C2=O)CC(O)(C(CO)=NNC(=O)CCCCC(=O)NNC(=O)CCCc1ccc(I)cc1)CC3OC1CC(N)C(O)C(C)O1` (stereo not shown), the IC50 was 2080 nM (mouse KPC pancreatic cancer; cell viability, alamarBlue; 72 h).
The IC50 of `CO[C@@H]1[C@@H](O[C@@H]2O[C@H](C)[C@@H](O[C@H]3C[C@@](C)(O)[C@@H](OC(=O)Nc4ccc(C)cc4)[C@H](C)O3)[C@H](N(C)C)[C@H]2O)[C@@H](CC=O)C[C@@H](C)[C@@H](O[C@H]2CC[C@H](N(C)C)[C@@H](C)O2)/C=C/C=C/C[C@@H](C)OC(=O)C[C@H]1O` is reported as 1260 nM (HGC-27; cell growth or viability, CCK-8; 72 h).
`O=C(Nc1ccc(Cl)c(-c2nc3ccccc3[nH]2)c1)c1ccc(NC(=O)c2ccccc2Cl)cc1` gave an IC50 of 250 nM (NIH3T3-Gli-Luc; Hedgehog signalling, Gli-luciferase reporter; added: Shh-conditioned medium).
For `CCCCC(CC)CNC(=N)NC(=N)NCCCCCCCCNC(=N)NC(=N)NCC(CC)CCCC` (stereo not shown), the IC50 was 3700 nM (NCI-H1299; cell growth or viability; 72 h).
The IC50 of `CC(=O)N[C@H]1C(n2cc([C@@](C)(O)c3cccc(F)c3)nn2)O[C@H](COCc2ccccc2)[C@H](OCc2ccccc2)[C@@H]1OCc1ccccc1` (stereo partly shown) is reported as 30000 nM (SJSA-1; cell growth or viability, MTS; 72 h).
For `COc1ccc2c(C)nc(Nc3nc(O)cc(-c4ccccc4)n3)nc2c1`, the IC50 was 4500 nM (HCC4017; cell growth or viability, MTS; 96 h).
`COCCN1CCCN(c2ccc(Oc3ccc(F)cc3F)c(-c3cn(C)c(=O)c4[nH]ccc34)c2)S1(=O)=O` has an IC50 of 33.9 ± 11.1 nM (Light II cells; GLI reporter gene, inhibitor; Hedgehog pathway).
The IC50 of `O=[N+]([O-])C(=C\Nc1ccccc1O)/C=N/c1ccccc1O` is reported as 10000 nM (HCC4017; cell growth or viability, MTS; 96 h).
For `CCCCc1ccc(C(=O)O[C@H]2[C@H](C)O[C@@H](O[C@H]3[C@H](N(C)C)[C@@H](O)[C@H](O[C@H]4[C@@H](CC=O)C[C@@H](C)[C@@H](O[C@H]5CC[C@H](N(C)C)[C@@H](C)O5)/C=C/C=C/C[C@@H](C)OC(=O)C[C@@H](O)[C@@H]4OC)O[C@@H]3C)C[C@@]2(C)O)cc1`, the IC50 was 1660 nM (HGC-27; cell growth or viability, CCK-8; 72 h).
`C=Cc1cc2c(cc1OC)C1(C)Cc3cnc(C)nc3C(C)(C)C1CC2` (stereo not shown) gave an IC50 of greater than 100000 nM (TM3; cell growth or viability, SRB; 24 h).
The IC50 of `N=C(N/N=C/c1ccc2ccc3cccc4ccc1c2c34)N/N=C/c1ccc2ccc3cccc4ccc1c2c34` is reported as 281000 nM (IMR-90; cell growth or viability, crystal violet; 72 h).
`CCC(C(=O)O)C1CCC(C)C(C(C)C(O)C(C)C(=O)C(CC)C2OC3(C=CC(NCc4cn(CSc5ccccc5)nn4)C4(CCC(C)(C5CCC(O)(CC)C(C)O5)O4)O3)C(C)CC2C)O1` (stereo not shown) has an IC50 of 980 ± 300 nM (HMLER CD24high/CD44low; cell viability, CellTiter-Blue; 72 h).
`C1=[N+]2CCCC[N+]3=Cc4ccc5[n]4[Au-]23[n]2c1ccc2-c1nc2ccccc2nc1-5.F[P-](F)(F)(F)(F)F` has an IC50 of 15000 nM (NCI60 non-small cell lung lines).
The IC50 of `C#CCN(CC(=O)O[C@H]1[C@H](C)O[C@@H](O[C@H]2[C@H](N(C)C)[C@@H](O)[C@H](O[C@H]3[C@@H](CC=O)C[C@@H](C)[C@@H](O[C@H]4CC[C@H](N(C)C)[C@@H](C)O4)/C=C/C=C/C[C@@H](C)OC(=O)C[C@@H](O)[C@@H]3OC)O[C@@H]2C)C[C@@]1(C)O)Cc1ccc(C(F)(F)F)cc1` is reported as 1200 nM (HGC-27; cell growth or viability, CCK-8; 72 h).
`Cc1cc(C(=O)CN2C(=O)CCC2=O)c(C)n1Cc1ccccc1`: IC50 “inactive” (CHO CRE-bla parental; counterscreen).
`O=C1Nc2ccccc2C1=NN=Cc1ccc(F)cc1` gave an IC50 of roughly 10 µg/mL (MCF7 and MDA-MB-231; cytotoxicity, MTT; 24 and 48 h).
With `N=C(N/N=C/c1cc(C(F)(F)F)cc(C(F)(F)F)c1)N/N=C/c1cc(C(F)(F)F)cc(C(F)(F)F)c1` the IC50 was 197000 nM (IMR-90; cell growth or viability, crystal violet; 72 h).
With `CN(C)c1cc[n+](CCCCC[n+]2ccc(N(C)C)cc2)cc1` the IC50 was greater than 100000 nM (3T3-L1; cell viability, MTT; 72 h).
The IC50 of `CCc1n(CC(=O)O[C@@H]2C[C@H](C)CC[C@H]2C(C)C)c2ccccc2[n+]1C` is reported as roughly 1000 nM (primary human glioblastoma cultures; cell viability).
With `O=C(NN1C(=O)c2ccccc2NC1c1ccc([N+](=O)[O-])o1)c1ccc([N+](=O)[O-])cc1` (stereo not shown) the IC50 was 49000 nM (LDR; cell viability, MTS; 4 days).
For `C=C(F)C(=O)Nc1cnn2ccc(-c3ccc(C4CCCCC4)cc3)nc12`, the IC50 was 162 nM (MCF7 TEAD-LUC; TEAD luciferase reporter, inhibitor; 24 h).
For `C(=N\Nc1nc(-c2ccccn2)nc2ccccc12)/c1ccccc1`, the IC50 was 1200 nM (LDR; cell viability, MTS; 4 days).
`C#CCOc1ccc(/C=N\NC(=O)c2ccncc2)cc1` has an IC50 of greater than 500000 nM (normal dermal fibroblasts; cell viability, MTT; 48 h).
`CCN1/C(=C/C=C2\CCCC(/C=C/C3=[N+](CC)c4ccccc4C3(C)C)=C2NCCCCCCCCN2CCC(Nc3nc4ccccc4n3Cc3ccc(F)cc3)CC2)C(C)(C)c2ccccc21` gave an IC50 of roughly 1000 nM (A 172; cell growth or viability, CCK-8; 72 h).
With `COCC/N=C(\S)N/N=C(\C)c1ccccc1O` the IC50 was greater than 50000 nM (HCC4017; cell growth or viability, MTS; 96 h).
`Cc1c(C)n(-c2c(C(C)C)cccc2C(C)C)c(=[Se])n1-c1c(C(C)C)cccc1C(C)C.[Cl][Au]` has an IC50 of 300 nM (A-431; cell growth or viability, MTT; 72 h).

Excerpt of the above:
For `COc1cccc2c1C(=O)c1c(O)c3c(c(O)c1C2=O)CC(O)(C(CO)=NNC(=O)CCCCC(=O)NNC(=O)CCCc1ccc(I)cc1)CC3OC1CC(N)C(O)C(C)O1` (stereo not shown), the IC50 was 2080 nM (mouse KPC pancreatic cancer; cell viability, alamarBlue; 72 h).
`COCCN1CCCN(c2ccc(Oc3ccc(F)cc3F)c(-c3cn(C)c(=O)c4[nH]ccc34)c2)S1(=O)=O` has an IC50 of 33.9 ± 11.1 nM (Light II cells; GLI reporter gene, inhibitor; Hedgehog pathway).
For `CC(=O)[O-].Nc1ccc(C([O-])=NN=Cc2ccc(OCC(=O)Nc3ccc(Cl)cc3)cc2)cc1.O.O.O.[Co+2]`, the IC50 was 31 µg/mL (WISH; cell growth or viability, MTT; 24 h).
